# Experimental data gathered from unrelated publications.
# Numbered parts are unrelated; each lists some results of a single study. Positions count from the first letter of the parent shown.

# Study 1 — target: CCNB2, cyclin fold, Cln2 fusion (human); method: yeast growth competition, sequencing; sample: yeast; setting: weak parent motif; relative to: not given; reading: higher = stronger binding
# Parent: RBL1 docking peptide (human); GSAKRRLFGEDPP; partner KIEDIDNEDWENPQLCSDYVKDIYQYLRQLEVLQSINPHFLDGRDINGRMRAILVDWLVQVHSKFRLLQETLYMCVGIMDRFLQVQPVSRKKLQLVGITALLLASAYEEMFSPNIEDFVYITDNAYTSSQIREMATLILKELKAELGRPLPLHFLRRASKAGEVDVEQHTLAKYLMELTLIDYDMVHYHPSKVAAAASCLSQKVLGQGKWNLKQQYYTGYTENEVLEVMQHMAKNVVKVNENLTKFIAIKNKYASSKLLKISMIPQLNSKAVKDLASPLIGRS
Substitution,normalised enrichment score
R6S,0.18
E10L,0.482
G9W,0.498
S2Y,0.204
G1Q,0.117
K4C,0.222
A3T,0.893

# Study 2 — method: universal PBM; form: double-stranded DNA, one strand shown; sample: in vitro; concentration: not given; reading: higher = stronger binding
# Target: Sal-like protein 4, full length isoform B (SALL4, Homo sapiens, UniProt Q9UJQ4-2, residues 1-616)
# Setting: 8-mer, flanks averaged, mean of replicates
Oligonucleotide,E-score
GGATAGTA,0.241
CCGAACAC,-0.0667
CCTATTCG,-0.0324
AGACGCCA,-0.093
ATCGTTCG,-0.00558
AGGAAATA,0.353
GAACTTAA,0.00725
CGTTAAGC,-0.116
CCCCACAC,-0.0537
CGGCGCCC,-0.311

# Study 3 — method: protein binding microarray; form: double-stranded DNA, one strand shown; sample: in vitro; concentration: not given; relative to: not given; reading: higher = stronger binding
# Target: Histone acetyltransferase KAT6A, both winged helices, GST fusion (KAT6A, Homo sapiens, UniProt Q92794, residues 1-181)
# Setting: 8-mer, flanks averaged, mean of 2 arrays, mostly near background
# Residues (chain): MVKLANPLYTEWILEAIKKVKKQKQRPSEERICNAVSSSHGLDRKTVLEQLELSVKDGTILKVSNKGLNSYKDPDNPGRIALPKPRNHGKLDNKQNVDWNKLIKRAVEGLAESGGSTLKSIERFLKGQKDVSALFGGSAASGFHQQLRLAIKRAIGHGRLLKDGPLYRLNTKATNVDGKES
Oligonucleotide,E-score
GAAACTCA,-0.0722
CACAAAGA,-0.151
GAAGTGAA,-0.0313
CCTAATCA,-0.237
CAGGGCAC,-0.13
AGTCGGGC,0.116
GCGCTTCC,0.34
CGTGGGGC,-0.0941
ATATCGCG,0.348
GTTGAGAA,-0.073
ACGCGCGC,0.392

# Further values, each from its own experiment
Molecule,target,assay,system,setting,how to read,measurement,result
"PhoQ, residues 284 288 289 292 302 303 SSTLSG","PhoP, residues 12 14 15 18 19 NMSFL (Escherichia coli, UniProt P23836)","Sort-seq, item: YFP reporter",E. coli,"PhoQ-PhoP variant library, together with: 10 µM Mg2+","relative to: high Mg2+ state, higher = stronger signaling",fold induction,12

# Some of these lines once more (study 3):
Oligonucleotide,E-score
CACAAAGA,-0.151
